Measurements gathered from unrelated publications.
Compare with care: the assays were run in different laboratories. ± marks the error that the study gave.
STK26: Serine/threonine-protein kinase 26 (STK26, Homo sapiens, UniProt Q9P289)
Chain of UniProt Q9P289 (whole entry, looked up): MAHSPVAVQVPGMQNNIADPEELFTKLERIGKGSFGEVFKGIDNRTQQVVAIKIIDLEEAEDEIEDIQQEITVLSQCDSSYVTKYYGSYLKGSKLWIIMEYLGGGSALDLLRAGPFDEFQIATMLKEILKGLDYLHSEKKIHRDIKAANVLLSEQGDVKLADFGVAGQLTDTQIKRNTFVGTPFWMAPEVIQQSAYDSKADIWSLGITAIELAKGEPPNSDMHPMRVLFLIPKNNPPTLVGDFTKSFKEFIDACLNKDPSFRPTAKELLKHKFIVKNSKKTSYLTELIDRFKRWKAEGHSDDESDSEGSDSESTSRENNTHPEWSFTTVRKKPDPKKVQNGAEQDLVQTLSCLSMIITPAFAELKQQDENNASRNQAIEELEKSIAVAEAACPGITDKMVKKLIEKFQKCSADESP
Chain of UniProt P04629 (whole entry, looked up): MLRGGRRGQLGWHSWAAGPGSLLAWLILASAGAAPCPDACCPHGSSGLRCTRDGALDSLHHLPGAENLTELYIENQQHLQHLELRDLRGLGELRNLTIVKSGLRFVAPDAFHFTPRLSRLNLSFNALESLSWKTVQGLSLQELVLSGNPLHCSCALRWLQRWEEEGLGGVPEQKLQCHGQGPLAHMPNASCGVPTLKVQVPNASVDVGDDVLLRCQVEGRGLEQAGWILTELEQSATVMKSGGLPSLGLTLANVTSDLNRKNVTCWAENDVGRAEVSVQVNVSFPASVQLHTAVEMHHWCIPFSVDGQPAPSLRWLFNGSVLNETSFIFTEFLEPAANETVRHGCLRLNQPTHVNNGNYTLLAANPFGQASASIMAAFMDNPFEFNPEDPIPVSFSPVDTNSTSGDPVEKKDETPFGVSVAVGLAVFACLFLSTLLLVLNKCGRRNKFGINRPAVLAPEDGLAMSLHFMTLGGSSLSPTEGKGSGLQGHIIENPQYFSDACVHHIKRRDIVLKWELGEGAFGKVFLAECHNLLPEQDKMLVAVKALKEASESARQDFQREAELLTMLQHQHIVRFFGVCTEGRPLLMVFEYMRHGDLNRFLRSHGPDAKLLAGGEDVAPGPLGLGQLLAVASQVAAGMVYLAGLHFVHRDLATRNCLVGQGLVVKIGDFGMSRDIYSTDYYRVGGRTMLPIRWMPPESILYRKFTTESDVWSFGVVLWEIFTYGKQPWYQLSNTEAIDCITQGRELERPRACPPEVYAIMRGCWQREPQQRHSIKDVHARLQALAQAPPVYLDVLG
Chain of UniProt P52564 (whole entry, looked up): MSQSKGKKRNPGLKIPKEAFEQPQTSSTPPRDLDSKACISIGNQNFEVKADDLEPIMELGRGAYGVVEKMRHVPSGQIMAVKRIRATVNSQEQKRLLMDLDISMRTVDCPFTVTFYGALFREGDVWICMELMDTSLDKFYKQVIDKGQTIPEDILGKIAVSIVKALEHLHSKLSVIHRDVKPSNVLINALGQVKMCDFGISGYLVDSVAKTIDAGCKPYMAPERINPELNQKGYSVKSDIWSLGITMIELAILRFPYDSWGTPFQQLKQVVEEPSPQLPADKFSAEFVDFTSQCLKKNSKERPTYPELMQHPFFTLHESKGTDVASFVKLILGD
Chain of UniProt Q92626 (whole entry, looked up): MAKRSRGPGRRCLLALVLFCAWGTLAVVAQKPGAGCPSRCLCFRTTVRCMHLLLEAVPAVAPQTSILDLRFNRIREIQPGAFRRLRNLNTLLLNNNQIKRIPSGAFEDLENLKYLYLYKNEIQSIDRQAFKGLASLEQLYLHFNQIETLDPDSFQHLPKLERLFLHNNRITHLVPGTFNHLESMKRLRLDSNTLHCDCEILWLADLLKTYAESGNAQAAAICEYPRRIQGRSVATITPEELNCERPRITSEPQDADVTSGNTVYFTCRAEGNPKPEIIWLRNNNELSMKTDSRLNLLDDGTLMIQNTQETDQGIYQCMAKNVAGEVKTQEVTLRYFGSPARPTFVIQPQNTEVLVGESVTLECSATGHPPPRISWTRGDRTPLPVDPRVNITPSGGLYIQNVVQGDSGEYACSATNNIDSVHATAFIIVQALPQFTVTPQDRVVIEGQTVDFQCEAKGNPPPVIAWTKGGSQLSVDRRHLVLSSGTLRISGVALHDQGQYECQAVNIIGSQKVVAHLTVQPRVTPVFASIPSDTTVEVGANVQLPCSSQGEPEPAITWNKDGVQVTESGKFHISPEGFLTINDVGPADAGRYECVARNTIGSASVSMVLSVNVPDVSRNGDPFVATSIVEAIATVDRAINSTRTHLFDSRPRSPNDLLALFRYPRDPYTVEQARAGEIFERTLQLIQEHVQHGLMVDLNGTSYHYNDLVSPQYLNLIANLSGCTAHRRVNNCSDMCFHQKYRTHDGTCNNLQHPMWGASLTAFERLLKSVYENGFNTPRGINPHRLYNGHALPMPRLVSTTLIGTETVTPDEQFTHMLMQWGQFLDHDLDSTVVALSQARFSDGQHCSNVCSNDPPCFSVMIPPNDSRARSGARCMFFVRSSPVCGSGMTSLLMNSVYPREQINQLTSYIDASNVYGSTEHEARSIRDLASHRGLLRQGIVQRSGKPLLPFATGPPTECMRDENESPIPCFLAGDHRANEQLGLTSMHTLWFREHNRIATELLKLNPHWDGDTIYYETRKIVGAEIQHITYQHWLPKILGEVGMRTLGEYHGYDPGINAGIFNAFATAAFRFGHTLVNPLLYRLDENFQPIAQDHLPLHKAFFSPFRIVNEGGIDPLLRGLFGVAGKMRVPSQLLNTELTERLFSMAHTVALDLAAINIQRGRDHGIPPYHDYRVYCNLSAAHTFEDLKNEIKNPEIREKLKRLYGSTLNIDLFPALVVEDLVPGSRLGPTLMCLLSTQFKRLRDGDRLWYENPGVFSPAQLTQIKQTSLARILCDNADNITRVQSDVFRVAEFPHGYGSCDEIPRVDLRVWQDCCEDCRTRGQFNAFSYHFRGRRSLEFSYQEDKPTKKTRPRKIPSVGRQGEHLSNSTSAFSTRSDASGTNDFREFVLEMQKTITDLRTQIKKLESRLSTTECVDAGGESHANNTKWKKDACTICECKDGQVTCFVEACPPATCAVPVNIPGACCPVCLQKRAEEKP
Chain of UniProt P48736 (whole entry, looked up): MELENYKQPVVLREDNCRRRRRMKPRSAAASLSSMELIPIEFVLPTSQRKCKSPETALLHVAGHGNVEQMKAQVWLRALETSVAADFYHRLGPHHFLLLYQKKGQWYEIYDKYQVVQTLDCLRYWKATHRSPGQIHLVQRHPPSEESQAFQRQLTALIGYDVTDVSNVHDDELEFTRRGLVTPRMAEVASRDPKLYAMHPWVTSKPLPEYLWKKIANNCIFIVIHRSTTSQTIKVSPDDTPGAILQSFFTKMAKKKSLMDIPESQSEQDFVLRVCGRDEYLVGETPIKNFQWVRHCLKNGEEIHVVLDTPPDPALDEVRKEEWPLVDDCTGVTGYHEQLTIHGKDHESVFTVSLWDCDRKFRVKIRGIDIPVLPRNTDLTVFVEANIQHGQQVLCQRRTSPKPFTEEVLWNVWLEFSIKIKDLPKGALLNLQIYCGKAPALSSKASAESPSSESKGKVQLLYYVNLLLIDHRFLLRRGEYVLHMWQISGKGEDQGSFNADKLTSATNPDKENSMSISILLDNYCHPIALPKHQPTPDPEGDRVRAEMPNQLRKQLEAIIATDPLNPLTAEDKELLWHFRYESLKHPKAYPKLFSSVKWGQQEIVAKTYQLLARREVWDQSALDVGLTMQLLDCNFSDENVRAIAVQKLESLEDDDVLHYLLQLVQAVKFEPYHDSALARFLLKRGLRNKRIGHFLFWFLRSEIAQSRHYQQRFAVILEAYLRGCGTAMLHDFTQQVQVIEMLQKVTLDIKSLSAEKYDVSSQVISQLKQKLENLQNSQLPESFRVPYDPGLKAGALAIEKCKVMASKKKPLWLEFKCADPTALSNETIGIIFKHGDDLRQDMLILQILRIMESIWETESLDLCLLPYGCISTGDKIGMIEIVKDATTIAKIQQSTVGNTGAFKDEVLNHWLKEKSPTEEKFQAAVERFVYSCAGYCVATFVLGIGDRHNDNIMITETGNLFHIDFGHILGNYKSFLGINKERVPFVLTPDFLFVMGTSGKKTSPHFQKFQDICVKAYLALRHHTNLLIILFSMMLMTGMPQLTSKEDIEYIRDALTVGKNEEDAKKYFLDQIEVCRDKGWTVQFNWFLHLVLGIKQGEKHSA
Chain of UniProt Q14012 (whole entry, looked up): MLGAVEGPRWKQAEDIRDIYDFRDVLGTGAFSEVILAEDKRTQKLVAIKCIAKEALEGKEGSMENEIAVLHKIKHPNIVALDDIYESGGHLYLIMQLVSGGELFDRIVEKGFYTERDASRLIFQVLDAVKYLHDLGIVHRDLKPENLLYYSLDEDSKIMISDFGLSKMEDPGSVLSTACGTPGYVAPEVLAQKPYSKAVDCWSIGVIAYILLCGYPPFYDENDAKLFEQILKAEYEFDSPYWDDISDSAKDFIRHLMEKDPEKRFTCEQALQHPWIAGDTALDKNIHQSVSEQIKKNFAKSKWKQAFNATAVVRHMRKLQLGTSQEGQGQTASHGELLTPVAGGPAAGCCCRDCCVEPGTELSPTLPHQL

target or system = CAMK1 (Homo sapiens, UniProt Q14012); conditions = 1 µM; endpoint = remaining activity; result = 26.5%; Structure (SMILES) = C=CC(=O)N1CCC[C@@H](n2nc(-c3ccc(Oc4ccccc4)cc3)c3c(N)ncnc32)C1
system = rat liver microsomes; conditions = 1 µM; endpoint = hepatic clearance; result = 51 mL/min/kg; Structure (SMILES) = O=C(CC1CCOCC1)Nc1ccc(C2CCCCC2)cc1
target or system = MAP2K6 (Homo sapiens, UniProt P52564); assay = kinase activity, inhibitor, HotSpot radiometric; conditions = 100 nM, with: ATP 10 µM; endpoint = remaining activity; result = 91.1 ± 1.3%; Structure (SMILES) = COc1ccc(F)cc1C(=O)NCc1ccc(-c2nn([C@@H](C)C(F)(F)F)c(N)c2C(N)=O)cc1
assay = liver microsome stability; system = rat liver microsomes; conditions = 1 µM; endpoint = hepatic clearance; result = 43 mL/min/kg; Structure (SMILES) = CN1CCC(c2ccc(-c3ccc(C4CCCCC4)cc3)cn2)CC1
target or system = STK26; assay = enzyme activity; conditions = 10 µM; endpoint = remaining activity; result = 45%; Structure (SMILES) = O=C1NC(=O)/C(=C/c2ccc(-c3ccc(F)cc3O)o2)S1
target or system = Abl(m); assay = kinase activity; conditions = 1 µM; endpoint = remaining activity; result = 31%; Structure (SMILES) = O=C(O)c1ccc(Nc2ncc3c(n2)-c2ccc(Cl)cc2C(c2c(F)cccc2F)=NC3)cc1
target or system = STK26; assay = kinase activity; conditions = 1 µM, human enzyme, with: ATP 10 µM; scale = relative to: DMSO control; endpoint = remaining activity; result = 115%; Structure (SMILES) = COc1cc(-c2cncc3c2CN(C)Cc2cc(N4CCNCC4)ccc2-3)cc(OC)c1OC
target or system = Peroxidasin homolog (PXDN, Homo sapiens, UniProt Q92626); assay = Amplex UltraRed; conditions = 50 µM; scale = relative to: control; endpoint = remaining activity; result = 11.7%; Structure (SMILES) = NC/C(=C\F)COc1cccc(Cn2c(=S)[nH]c(=O)c3[nH]cnc32)c1
target or system = PIK3CG (Homo sapiens, UniProt P48736); assay = kinase activity; conditions = 10 µM, with: ATP 10 µM; endpoint = remaining activity; result = 99%; Structure (SMILES) = COc1cc(F)ccc1-c1ncnc(Nc2cccc(C[S@](C)(=N)=O)c2)n1
target or system = NTRK1 (Homo sapiens, UniProt P04629); assay = kinase activity, KinaseProfiler; conditions = 0.03 µM, species human; scale = relative to: control; endpoint = remaining activity; result = 20%; Structure (SMILES) = Cc1cc(Nc2cc(N3CCN(C)CC3)nc(Sc3ccc(NC(=O)C4CC4)cc3)n2)[nH]n1
target or system = PDGFRA D842V; assay = kinase activity; conditions = 1 µM; endpoint = remaining activity; result = 87%; Structure (SMILES) = COc1cc(Nc2ncc3c(n2)-c2ccc(Cl)cc2C(c2c(F)cccc2OC)=NC3)ccc1C(=O)O

A few entries again:
target or system = STK26; assay = kinase activity; conditions = 1 µM, human enzyme, with: ATP 10 µM; scale = relative to: DMSO control; endpoint = remaining activity; result = 115%; Structure (SMILES) = COc1cc(-c2cncc3c2CN(C)Cc2cc(N4CCNCC4)ccc2-3)cc(OC)c1OC
target or system = PIK3CG (Homo sapiens, UniProt P48736); assay = kinase activity; conditions = 10 µM, with: ATP 10 µM; endpoint = remaining activity; result = 99%; Structure (SMILES) = COc1cc(F)ccc1-c1ncnc(Nc2cccc(C[S@](C)(=N)=O)c2)n1
